Experimental data of several laboratories.
Each line is one published result; not all experiments were run side by side. ± gives the spread as reported.
Target: Beta-secretase 1 (BACE1, Homo sapiens, UniProt P56817)

The IC50 of `CCc1ccc(/C=C/C(=O)c2ccc(N3CCNCC3)cc2)cc1` is reported as 16.4 µM (enzyme activity, inhibitor, fluorescence; with preincubation).
`CC(C)=CCCC(C)=CCCC(C)=CCc1c(O)cc(O)c(CC=C(C)C)c1-c1cc2ccc(O)cc2o1` has an IC50 of 2.03 µM (enzyme activity, inhibitor, FRET).
`O=C(/C=C/c1ccc(C(F)(F)F)cc1)c1ccc(N2CCNCC2)cc1` has an IC50 of 15.3 µM (enzyme activity, inhibitor, fluorescence; with preincubation).
With `CC(C)=CCCC1(C)C=Cc2c(ccc3cc(-c4cc(O)cc(O)c4CC=C(C)C)oc23)O1` (centres unmarked) the Ki was 0.45 µM (enzyme activity, inhibitor, FRET).
With `Fc1ccc(N2CCN(Cc3nnc(-c4ccccc4)o3)CC2)cc1` the IC50 was 1.48 µM (enzyme activity, inhibitor, FRET).
The IC50 of `N=C(N)N/N=C(/C=C/c1ccccc1)c1cn(Cc2ccccc2)c2ccccc12` is reported as 203 µM (enzyme activity, inhibitor, FRET).
For `CC(=O)c1c(O)ccc2ccc(=O)oc12`, the IC50 was 18.4 ± 1.04 µM.
`N#Cc1ccc(Cn2cccc2C(/C=C/c2ccccc2)=N/NC(=N)N)cc1` gave an IC50 of 112 µM (enzyme activity, inhibitor, FRET).

Repeated from above:
`O=C(/C=C/c1ccc(C(F)(F)F)cc1)c1ccc(N2CCNCC2)cc1` has an IC50 of 15.3 µM (enzyme activity, inhibitor, fluorescence; with preincubation).
